# Experimental data from different studies.
# A part holds a random share of what one study measured.

# Set 1 — technique: RNA Bind-n-Seq; molecule type: RNA; matrix: in vitro; concentration: 20 nM; notes: 6-mer, flanks averaged, single round; added: 150 mM LiCl; baseline: input library; reading: higher = stronger binding
# Target: TAR DNA-binding protein 43, full length, His tag (TARDBP, Homo sapiens, UniProt Q13148, residues 1-414)
Oligonucleotide,6-mer enrichment (R)
CCAUAG,0.88
UGUUAG,1.22
CCAUCU,0.903
CACCCA,1.04
UUCCAU,0.925
AAUCUC,0.831
AGAGAC,0.881
UCAACC,0.844
UUCUCU,0.965
AAACGA,0.764
GCGGUA,1.04
AUCCCU,0.983
CCUACA,0.867
UCGUGG,1.02
UGAGAU,0.972
AACGCG,0.893
AUCGUU,0.927
AGUACU,0.824
GCGGAG,1.12
GGAUGC,1.05
CUCAGA,0.779
CGCAAG,0.876
AGGAGA,0.983
CCGGUG,1.03
GGACGG,1.14

# Set 2 — technique: protein-binding microarray; molecule type: double-stranded DNA, one strand shown; matrix: in vitro; concentration: 250 nM; notes: 60-bp whole probe; added: salmon DNA 0.4 mg/ml; baseline: random background probes; reading: higher = stronger binding; all sequences stand within: GCCTAGCAC … GTCTTGATTCGCTTGACGCTGCTG
# Target: Interferon regulatory factor 5, full length, phosphomimetic (IRF5, Homo sapiens, UniProt Q13568-2, residues 1-514, K96S/S451D/S453D/S456D/S462D)
Oligonucleotide,log fluorescence [z-score]
TCACTTCTGTTTTTGCTACTGTGCTAG,1.19
ACAGAACTCAACTGTCTGCCTGTGCTA,0.016
TTAGATTTCAGGATCGATTAGTGCTAG,1.3
TCAAGCCTCAGTCCTCACACTGTGCTA,-0.421
GACGATATCAGTCTCGAGATGTGCTAG,1.23
GACGATTTCGGGACTCGAGACGTGCTA,1.5
GACGAACTGGGGACTGGAGTCGTGCTA,-0.603
CAGCCTCTGAGCAGCTCGGCGTGCTAG,-0.527
GACGGTTTCGACTTCCGGGACGTGCTA,5.78
TCACTGATCCATTTTGGACTGTGCTAG,-0.025
TTAGGAATGGGGACTGGGTTAGTGCTA,-0.288
GACGGACTGGGTCTAGGGACGTGCTAG,-0.847
TCATATATACCTGTATAACTGTGCTAG,0.373
GACGATATCGGAACTGGAGACGTGCTA,1.42
GACGGTTTCGGTCTCCGGACGTGCTAG,9.57
GACGAACTGAGTATCGAGATGTGCTAG,1.97
ATAAATATGAGACTGGGGATGTGCTAG,0.0786
GACGGACCGGGTATCGGGACGTGCTAG,0.0851
TCAACCATCCTGTGTCTTACTGTGCTA,0.075
TTAGATCTCAGATTGGATTAGTGCTAG,0.0105
TTTACTTTCTATCTCTGTTTGTGCTAG,7.21
TTAGGTCTCCTTCTACTTTAGTGCTAG,0.0411
GACGGACGGGACACTGGGGACGTGCTA,-0.947
TTAGATTTCAGGACTGGATTAGTGCTA,0.682
TTAGGACTGGGGTTTCGGTGAGTGCTA,4.11

# Set 3 — technique: RNA Bind-n-Seq; molecule type: RNA; matrix: in vitro; concentration: not given; baseline: input RNA pool; reading: higher = stronger binding
# Target: RING finger protein unkempt homolog, zinc fingers 1-6, GST-SBP tag (UNK, Homo sapiens, UniProt Q9C0B0, residues 30-357)
# Notes: RNA with constant flanks, human and mouse sites, ends assumed
# Construct (chain): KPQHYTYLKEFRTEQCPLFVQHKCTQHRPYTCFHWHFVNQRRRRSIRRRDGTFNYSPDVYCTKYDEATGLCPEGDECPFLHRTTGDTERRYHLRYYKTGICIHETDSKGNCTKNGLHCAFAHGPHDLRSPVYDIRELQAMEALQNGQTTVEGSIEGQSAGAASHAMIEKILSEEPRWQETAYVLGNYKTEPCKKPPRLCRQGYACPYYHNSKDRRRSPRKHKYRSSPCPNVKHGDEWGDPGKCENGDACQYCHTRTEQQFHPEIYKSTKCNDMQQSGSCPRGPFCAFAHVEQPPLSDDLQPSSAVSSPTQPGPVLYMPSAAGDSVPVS
Oligonucleotide,bound/input enrichment [ratio]
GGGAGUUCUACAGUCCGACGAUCUAAGAAUUGGAAGAAUUGUGUAGGAGGCAGUAGUCAAAAAGUAGAAGCAGUUUGGAAGAGUAGUUACAAAUAUCAAGAGCCAGGUGGCUAAAAGGUGGAGCUAUAGGUCAUUGAAGCUCACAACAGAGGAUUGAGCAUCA,9.85
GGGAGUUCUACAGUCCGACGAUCCCCAAGAAACUCCAUUUGUGUGCCUUGUGUGGCAAGAACUUUUCUAAUAACUCAAACCUAAUUAGGCACCAGAGAAUACAUGCAGCAGAAAAGCUGUGUAUGGAUGUAGAGUGUGGUGAACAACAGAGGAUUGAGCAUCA,0.32
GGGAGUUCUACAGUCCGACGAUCAGUUCACCGUGUAUCCACUACUUCACCGGGACCCCAGAUCCUUCCAGGUCCAUAUUCAAGCCUUUCAUCUUUGUUGAUGAUGUAAAACUUGUCCCCAAAGCACAGUCACCCUGUUUUGGUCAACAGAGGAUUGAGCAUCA,0.131
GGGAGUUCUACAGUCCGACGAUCUUCCUUACCCGGCCUAAGGUCCCUGUCUUGCAGCUGGAUAGUGGCAACUACCUCUUCUCUGCUAGUGCAAUCUGCCGAUAUUUUUUUCUGUUAUGUGGCUGGGAACAAGAUGAUCUCACCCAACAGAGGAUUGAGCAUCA,0.508
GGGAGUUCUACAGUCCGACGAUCUGGGCCAUAGACACAUCUCAAGCAAAGUGGAUGGUAAAAUAGGAAUUCAGAAAUCAGAAAUGCUUUCUCUGGCCUGUUCCUCUCCCCCACCCCCACCCCCGUUGUUUUGUUUUUGGGUGACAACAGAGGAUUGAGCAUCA,1.08
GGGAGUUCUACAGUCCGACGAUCUCGGAUGCUGUGCUGGGUCACUUUUCAUAUCCAGAUCCUUCACAGUGGACAGAUGAAGAACUGGGAAUCCCUCCUGAUGACGAGGACUGACACUGUAAACUCUCUGGACGAGUAGGAGCACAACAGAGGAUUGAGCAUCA,0.703
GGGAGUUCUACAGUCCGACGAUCAACUCCUGUGAUGAACACAUGGAGCUUGAUGACCUUCCUGAACUUCAGGCAGUUCAAAGUGAUCCUACCCAAUCUGGCAUGUACCAGCUGAGUUCAGAUGUUUCACAUCAAGAAUACCCACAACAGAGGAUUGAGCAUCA,0.0916
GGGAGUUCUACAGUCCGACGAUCCCUUCAAGGAAAGAAUUACCAGAAUACUAUGAAUUAAUUAGGAAGCCAGUGGAUUUCAAAAAAAUAAAGGAAAGGAUUCGUAAUCAUAAGUACCGGAGCCUAGGCGACCUGGAGAAGGAUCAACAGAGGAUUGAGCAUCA,0.975
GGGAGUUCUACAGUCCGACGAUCAACACGACAAAUCGAGGAACGGAAAAAACAGCUGAGCUUCAUCAGCCCCCCUGCACCUCAGCCAAAGACACCUUCUUCUUCCCAACCAGAGCGACUUCCCAUCGGCAACACUAUUCAGCCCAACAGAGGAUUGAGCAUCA,0.348
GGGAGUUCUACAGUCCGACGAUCCAUUUGUGGUGUCCCGUCAAUCCCUGAAGGCAUAGAUUAUCUGAAACUACUUUUAAUCAGGAAGAUUUCAUAUCUUGAUACAGAUCAACUAUUCUGUUUGUUUUUCUGAAAUGAAAAGCACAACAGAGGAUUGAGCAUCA,0.379
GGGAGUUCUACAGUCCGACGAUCCCAAGAAUUCCAAACAUGCCUGACAAUCUUGUCCCCUUAUUGUAAUAAAGAGGGAUACCAUCAGUCUAGAUUUUAUUGAGAAUCCUUAAGAUUUAAAGCAUAGCUGUGGAUGUGGUGAAGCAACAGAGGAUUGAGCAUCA,0.708

# Set 4 — technique: RNA Bind-n-Seq; molecule type: RNA; matrix: in vitro; concentration: 365 nM; baseline: no-protein control; reading: higher = stronger binding
# Target: RNA binding protein fox-1 homolog 2, RRM domain, GST-SBP tag (RBFOX2, Homo sapiens, UniProt O43251-10, residues 100-194)
# Notes: natural RNA segment, single round, ends assumed
# Construct (chain): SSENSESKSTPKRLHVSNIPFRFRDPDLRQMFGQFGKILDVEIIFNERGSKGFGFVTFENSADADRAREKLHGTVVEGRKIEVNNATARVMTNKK
Oligonucleotide,RBNS enrichment (R)
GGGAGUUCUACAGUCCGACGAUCCCUUCUGUGCCAGGCAUUCUGGUCACUGACCUUGAACUAGGCCUGCAGGCUCUCCUGUCACCCCGCAUCACCUCACCCUUCUCUGUCCCUCAGCCUUCAGUCACAUUUAGUGGAAUUCUCGGGUGCCAA,0.807
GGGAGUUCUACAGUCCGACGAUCCUGUUUUGACGGCACAUGUGCCAGUCAAGGGACAUGGGACAGUCGCGCCACUUUGCAUUCCCACGGGACUCAUGUACCUCCCGCAGAGCCGUCCCCGUCAAGGUGUGGGGUGGAAUUCUCGGGUGCCAA,0.203
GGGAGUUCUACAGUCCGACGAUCACUAUAAUAGAGUUAUUUAAUUUUAAUUUGUUGAAUUAUUAGUUACCACUGUCAUUUCUUCAGCUAUGGAUAUGUGGCUGAUGUUGGGGAGACGGACCUCAGUGUGUUUUUGGAAUUCUCGGGUGCCAA,0.791
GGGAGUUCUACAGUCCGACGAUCCCUAAUGAUAUGAAGCCUUCUUUGUCUCUGACCUUUUUUCUCUGAGACCAGGAAUCUAGAUAAUAGUUUAGCUUCUGCCUGAUACUGAUCCGGGAGCACAUGAUAUUUAUUGGAAUUCUCGGGUGCCAA,0.577
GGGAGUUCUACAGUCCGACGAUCCCCAGUCUCGGGUAUGUCUUUAUCAGCAGUGUGAAAACAGACUAAUACACCACUCCUCUACCUUCUUUAUUUUCUCAGUGUGGAAAAUGCCUGAUGAAAGCUUUGGGGCCUGGAAUUCUCGGGUGCCAA,0.356
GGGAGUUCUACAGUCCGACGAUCUCAUGAGUGCCACCUGGUACAGGUAGGUGGCGCUCACGUUCCUGCCCAAAUGCAGCCCAUCGGGGAGUCACAGUCAGUCCCCCCGGCCCCCCUCCCAGUCCCUGUUGGCUUGGAAUUCUCGGGUGCCAA,0.231
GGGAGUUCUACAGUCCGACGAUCAACUGAGGACUUUAAAAGAGAUUUUCCCUUCCCAAACGUGUCUGGACAGUACCUGAUUGUAUUUUUUUUGUUUUGUUUUGUUUUUUAAUAAAAGCACAGUACUUUUCAGUUGGAAUUCUCGGGUGCCAA,0.917
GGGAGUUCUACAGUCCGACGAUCUCUUUAUAUAUGUUGAAUUAACAAAUAUUUUGAGUUUCUGAGAAAAAACAAAACAUAUUAAUGGUAUUGAAAUGUGUUAGUAGUCUGGCUGUGUGCCCAAAAUUCUGUUUUGGAAUUCUCGGGUGCCAA,0.456
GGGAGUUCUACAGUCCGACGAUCGAUAAGAAUAUUGCCUGGUUAAAAUUCUGCAUUGCUUAAAGACACCCAUGUUUAAGAUUUUUCAUCACUAACAUAUCCAUUAAAAGUAUCAACUGGCCAGGCAGGGUGGCUGGAAUUCUCGGGUGCCAA,0.552

# Repeated from above (set 1):
Oligonucleotide,6-mer enrichment (R)
UUCUCU,0.965
AAACGA,0.764
UCGUGG,1.02
AACGCG,0.893
GCGGAG,1.12
